Measured values pooled from the literature.
Numbers after ± are the reported error.
Target: Acetylcholinesterase (ACHE, Homo sapiens, UniProt P22303)
Sequence of UniProt P22303 (whole entry, looked up): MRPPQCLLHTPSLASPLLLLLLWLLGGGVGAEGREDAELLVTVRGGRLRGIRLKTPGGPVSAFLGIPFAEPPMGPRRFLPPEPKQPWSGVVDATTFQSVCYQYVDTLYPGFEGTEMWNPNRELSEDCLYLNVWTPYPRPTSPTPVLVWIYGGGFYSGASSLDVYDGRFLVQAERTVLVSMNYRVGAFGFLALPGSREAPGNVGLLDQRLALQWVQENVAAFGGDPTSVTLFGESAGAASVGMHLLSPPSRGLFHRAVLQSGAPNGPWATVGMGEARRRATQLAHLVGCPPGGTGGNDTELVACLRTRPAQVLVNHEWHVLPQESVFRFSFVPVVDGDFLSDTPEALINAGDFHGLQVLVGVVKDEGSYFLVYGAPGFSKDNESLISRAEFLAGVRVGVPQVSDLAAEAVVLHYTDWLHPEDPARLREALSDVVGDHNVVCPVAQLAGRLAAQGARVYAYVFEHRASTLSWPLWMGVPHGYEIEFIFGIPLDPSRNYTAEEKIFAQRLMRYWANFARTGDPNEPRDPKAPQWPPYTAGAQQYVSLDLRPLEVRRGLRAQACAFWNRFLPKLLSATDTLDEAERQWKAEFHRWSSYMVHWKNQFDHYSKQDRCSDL

With `CCN(CC)CCCCCOc1ccc2occc(=O)c2c1` the αKi was 5.23 ± 1.46 µM (uncompetitive inhibitor, Ellman; human erythrocyte ghosts).
With `S=C(NCc1ccccn1)NCc1ccccn1` the inhibition was 72.2% (enzyme activity, inhibitor; 500 µg/mL).
Under enzyme inhibition, `COC(=O)c1ccc(-n2nc(-c3ccccc3O)nc2-c2ccccc2O)cc1` is recorded as “inhibited” (modified Ellman's method; concentration not given).
For `O=c1ccoc2ccc(OCCCCCN3CCCCCC3)cc12`, the αKi was 13.1 ± 2.5 µM (uncompetitive inhibitor, Ellman; human erythrocyte ghosts).
With `COc1cc2c(cc1OC)C(=O)/C(=C\c1ccc([N+](C)(C)C)cc1)C2` the Ki' was 15 µM (non-competitive inhibitor, secondary plot).
For `O=C(O)CCCC(=O)O`, the inhibition was 70.2 ± 1.51% (enzyme activity, inhibitor; 500 µg/mL).
`NNC(=O)c1ccc(-n2nc(-c3ccccc3O)nc2-c2ccccc2O)cc1` — result for enzyme inhibition: “inhibited” (modified Ellman's method; concentration not given).
For `COc1cc2c(cc1OC)C(=O)/C(=C\c1ccc(N3CCOCC3)cc1)C2`, the Ki' was 1000 µM (non-competitive inhibitor, secondary plot).
`O=c1ccoc2ccc(OCCCCCN3CCCCC3)cc12` has a αKi of 3.8 ± 0.61 µM (uncompetitive inhibitor, Ellman; human erythrocyte ghosts).
For `CCS(=O)(=O)N1CCN(CC(=O)Nc2ccc(/C=C/C(=O)c3ccc(OC)c(OC)c3)cc2)CC1`, the inhibition was 85.8 ± 1.4% (enzyme activity; 100 µM).
`COc1cc2c(cc1OC)C(=O)/C(=C\c1ccc(-n3cccn3)cc1)C2` gave a Ki' of 51 µM (non-competitive inhibitor, secondary plot).
With `C=CCc1ccc(OC(=O)CSc2nnc(Cn3cnc4c3c(=O)n(C)c(=O)n4C)o2)c(OC)c1` the inhibition was 41.3% (enzyme activity, inhibitor, Ellman; 25 µM).
With `O=c1c(O)c(-c2cc(O)ccc2O)oc2cc(O)cc(O)c12` the inhibition was 54.2 ± 2.28% (enzyme activity, inhibitor; 125 µg/mL).
`O=C(O)/C=C/c1ccc(O)cc1` gave an inhibition of 83.4 ± 0.5% (inhibitor; 1000 µg/mL).
`O=C(O)/C=C/c1cc(O)cc(O)c1` has an inhibition of 74.3 ± 1.4% (enzyme activity, inhibitor; 500 µg/mL).
The inhibition of `COc1cc(C=O)ccc1OC(=O)CSc1nnc(Cn2cnc3c2c(=O)n(C)c(=O)n3C)o1` is reported as over 75% (enzyme activity, inhibitor, Ellman; 25 µM).
